Measured values gathered from unrelated publications.
Every numbered part comes from another study and shows a few of its results, in no order. Changes are numbered by the printed parent chain.
Chain of UniProt Q9Y3S1 (whole entry, looked up): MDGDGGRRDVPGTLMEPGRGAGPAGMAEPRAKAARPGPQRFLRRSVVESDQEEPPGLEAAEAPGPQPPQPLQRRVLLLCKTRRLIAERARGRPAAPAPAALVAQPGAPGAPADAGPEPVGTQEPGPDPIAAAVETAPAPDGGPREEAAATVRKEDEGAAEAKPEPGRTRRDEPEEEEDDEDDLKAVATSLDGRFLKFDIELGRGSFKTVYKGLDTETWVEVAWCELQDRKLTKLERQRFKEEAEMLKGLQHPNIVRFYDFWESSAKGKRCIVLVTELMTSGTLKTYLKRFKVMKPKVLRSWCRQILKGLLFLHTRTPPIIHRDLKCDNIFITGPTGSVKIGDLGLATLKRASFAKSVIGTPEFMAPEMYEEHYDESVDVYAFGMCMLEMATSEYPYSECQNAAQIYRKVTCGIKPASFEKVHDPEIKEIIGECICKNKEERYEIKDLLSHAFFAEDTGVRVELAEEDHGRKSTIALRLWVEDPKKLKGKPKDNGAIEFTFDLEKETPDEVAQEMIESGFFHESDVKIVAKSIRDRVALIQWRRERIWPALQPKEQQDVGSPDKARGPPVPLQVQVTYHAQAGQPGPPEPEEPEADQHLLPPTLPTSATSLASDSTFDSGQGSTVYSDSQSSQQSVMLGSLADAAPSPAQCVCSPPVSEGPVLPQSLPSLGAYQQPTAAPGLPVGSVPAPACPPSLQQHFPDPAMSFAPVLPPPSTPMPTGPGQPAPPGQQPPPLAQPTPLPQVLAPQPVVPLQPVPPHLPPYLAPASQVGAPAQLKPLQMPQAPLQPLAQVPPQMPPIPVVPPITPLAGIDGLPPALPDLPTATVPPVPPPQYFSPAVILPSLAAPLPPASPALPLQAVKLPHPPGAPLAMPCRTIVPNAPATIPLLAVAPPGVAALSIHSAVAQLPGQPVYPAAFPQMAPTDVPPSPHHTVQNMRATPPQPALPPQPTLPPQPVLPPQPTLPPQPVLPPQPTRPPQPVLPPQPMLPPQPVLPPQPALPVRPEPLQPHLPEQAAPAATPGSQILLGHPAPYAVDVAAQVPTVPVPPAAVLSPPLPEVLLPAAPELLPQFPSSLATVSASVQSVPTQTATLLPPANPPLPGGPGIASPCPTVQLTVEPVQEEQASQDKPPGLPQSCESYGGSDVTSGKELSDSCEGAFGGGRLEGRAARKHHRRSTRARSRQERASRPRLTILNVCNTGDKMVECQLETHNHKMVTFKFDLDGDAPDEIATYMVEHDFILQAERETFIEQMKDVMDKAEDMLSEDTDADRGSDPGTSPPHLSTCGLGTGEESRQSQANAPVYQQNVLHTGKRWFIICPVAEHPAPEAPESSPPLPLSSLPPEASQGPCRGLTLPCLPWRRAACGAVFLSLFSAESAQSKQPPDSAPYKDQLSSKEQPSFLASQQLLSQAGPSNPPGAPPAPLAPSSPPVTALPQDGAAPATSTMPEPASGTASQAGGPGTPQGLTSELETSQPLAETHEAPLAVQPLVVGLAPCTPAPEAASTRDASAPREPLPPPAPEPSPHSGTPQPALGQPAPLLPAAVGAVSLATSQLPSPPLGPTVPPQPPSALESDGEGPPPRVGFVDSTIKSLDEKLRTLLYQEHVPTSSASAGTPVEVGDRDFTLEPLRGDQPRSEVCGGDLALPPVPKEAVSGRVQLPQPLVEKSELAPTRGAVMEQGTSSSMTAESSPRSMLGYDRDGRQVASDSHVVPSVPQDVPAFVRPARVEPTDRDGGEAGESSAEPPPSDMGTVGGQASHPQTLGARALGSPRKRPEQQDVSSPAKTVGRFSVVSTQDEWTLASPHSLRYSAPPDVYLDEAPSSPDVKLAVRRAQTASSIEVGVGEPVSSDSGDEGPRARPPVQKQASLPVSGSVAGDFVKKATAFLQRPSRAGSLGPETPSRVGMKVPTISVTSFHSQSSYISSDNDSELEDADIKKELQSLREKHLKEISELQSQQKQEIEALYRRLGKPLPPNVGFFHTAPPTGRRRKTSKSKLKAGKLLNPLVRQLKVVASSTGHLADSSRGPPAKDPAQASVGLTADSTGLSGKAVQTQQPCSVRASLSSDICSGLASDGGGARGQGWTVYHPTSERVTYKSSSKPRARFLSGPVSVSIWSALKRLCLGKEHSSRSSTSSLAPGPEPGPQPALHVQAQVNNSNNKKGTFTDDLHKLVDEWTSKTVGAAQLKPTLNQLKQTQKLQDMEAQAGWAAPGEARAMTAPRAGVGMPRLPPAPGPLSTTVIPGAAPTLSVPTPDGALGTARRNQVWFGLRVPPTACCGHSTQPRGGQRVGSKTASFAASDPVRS
Chain of UniProt P07949 (whole entry, looked up): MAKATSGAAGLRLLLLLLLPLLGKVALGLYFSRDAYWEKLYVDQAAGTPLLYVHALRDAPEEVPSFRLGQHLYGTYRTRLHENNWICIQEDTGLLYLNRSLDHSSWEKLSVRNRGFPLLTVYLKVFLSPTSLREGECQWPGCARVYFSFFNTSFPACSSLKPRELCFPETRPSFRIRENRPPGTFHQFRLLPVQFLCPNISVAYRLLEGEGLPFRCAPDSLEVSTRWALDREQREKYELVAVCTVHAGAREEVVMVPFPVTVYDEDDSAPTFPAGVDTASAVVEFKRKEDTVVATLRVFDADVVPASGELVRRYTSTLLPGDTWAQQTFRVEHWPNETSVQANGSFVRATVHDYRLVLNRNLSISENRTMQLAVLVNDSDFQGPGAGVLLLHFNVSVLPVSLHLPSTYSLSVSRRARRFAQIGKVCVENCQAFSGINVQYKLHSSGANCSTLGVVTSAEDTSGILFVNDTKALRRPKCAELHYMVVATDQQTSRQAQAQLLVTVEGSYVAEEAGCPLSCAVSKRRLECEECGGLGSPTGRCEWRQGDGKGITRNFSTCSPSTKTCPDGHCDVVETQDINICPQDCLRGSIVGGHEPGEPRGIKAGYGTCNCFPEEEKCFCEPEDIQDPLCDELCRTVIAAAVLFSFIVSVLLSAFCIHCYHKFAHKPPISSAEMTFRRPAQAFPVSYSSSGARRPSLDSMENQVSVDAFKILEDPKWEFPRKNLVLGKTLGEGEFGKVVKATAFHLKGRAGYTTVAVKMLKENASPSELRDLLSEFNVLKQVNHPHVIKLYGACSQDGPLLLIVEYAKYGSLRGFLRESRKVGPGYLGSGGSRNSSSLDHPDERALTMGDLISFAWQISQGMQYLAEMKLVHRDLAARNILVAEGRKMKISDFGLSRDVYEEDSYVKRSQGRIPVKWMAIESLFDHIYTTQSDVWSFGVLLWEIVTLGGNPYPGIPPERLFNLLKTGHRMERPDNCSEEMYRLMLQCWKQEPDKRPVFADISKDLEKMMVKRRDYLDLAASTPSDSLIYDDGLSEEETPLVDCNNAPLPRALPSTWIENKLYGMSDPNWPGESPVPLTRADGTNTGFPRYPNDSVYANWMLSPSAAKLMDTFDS
Chain of UniProt Q13705 (whole entry, looked up): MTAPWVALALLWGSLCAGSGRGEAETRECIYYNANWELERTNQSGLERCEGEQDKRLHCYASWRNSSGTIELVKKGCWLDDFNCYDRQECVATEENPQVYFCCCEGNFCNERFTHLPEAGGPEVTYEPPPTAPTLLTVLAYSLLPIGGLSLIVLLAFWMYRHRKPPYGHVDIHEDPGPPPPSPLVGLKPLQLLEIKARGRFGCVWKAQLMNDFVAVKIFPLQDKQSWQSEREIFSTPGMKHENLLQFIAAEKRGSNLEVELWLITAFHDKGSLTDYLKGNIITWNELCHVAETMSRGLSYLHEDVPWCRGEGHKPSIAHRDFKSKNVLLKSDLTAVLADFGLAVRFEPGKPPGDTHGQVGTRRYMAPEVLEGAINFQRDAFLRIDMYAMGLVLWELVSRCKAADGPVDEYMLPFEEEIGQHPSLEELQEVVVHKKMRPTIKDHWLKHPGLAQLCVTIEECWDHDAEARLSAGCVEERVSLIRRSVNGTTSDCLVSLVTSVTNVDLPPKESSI
Chain of UniProt Q04771 (whole entry, looked up): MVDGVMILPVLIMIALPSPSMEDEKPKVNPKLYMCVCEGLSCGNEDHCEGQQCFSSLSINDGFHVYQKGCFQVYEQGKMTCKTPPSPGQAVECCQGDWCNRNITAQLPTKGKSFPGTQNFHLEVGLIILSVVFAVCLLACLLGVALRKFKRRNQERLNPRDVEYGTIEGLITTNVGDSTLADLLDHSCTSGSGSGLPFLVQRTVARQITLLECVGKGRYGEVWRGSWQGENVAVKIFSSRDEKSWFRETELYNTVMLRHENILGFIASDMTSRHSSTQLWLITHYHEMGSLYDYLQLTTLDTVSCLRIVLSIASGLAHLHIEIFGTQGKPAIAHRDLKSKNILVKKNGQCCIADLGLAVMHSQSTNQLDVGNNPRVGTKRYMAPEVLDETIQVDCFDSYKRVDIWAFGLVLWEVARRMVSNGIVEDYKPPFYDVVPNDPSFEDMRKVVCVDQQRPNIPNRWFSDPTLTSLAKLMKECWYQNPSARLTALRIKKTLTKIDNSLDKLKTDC
Chain of UniProt Q96PN8 (whole entry, looked up): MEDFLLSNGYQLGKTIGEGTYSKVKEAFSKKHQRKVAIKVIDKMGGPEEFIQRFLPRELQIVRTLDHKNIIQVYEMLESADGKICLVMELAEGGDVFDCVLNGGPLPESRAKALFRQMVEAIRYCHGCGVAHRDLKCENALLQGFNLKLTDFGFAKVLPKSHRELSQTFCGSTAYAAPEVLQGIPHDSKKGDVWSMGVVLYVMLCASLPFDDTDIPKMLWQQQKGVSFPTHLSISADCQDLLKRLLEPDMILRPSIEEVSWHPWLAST

Series 1 — read-out: peptide-MHC binding; molecule type: peptide; concentration: concentration not given
Target: HLA class I histocompatibility antigen, C alpha chain, allele C*04:01 (Homo sapiens, UniProt P10321)
Sequence | binding
AELGAFFSI | inactive
FPHTELANL | inactive
FLDKGTYTL | inactive
MVLSGTLAY | inactive
AVDADDSHF | inactive
MTMLIKAFK | inactive

Series 2 — target: CCNA1, cyclin fold, Cln2 fusion (human); technique: yeast growth competition, sequencing; sample: yeast; notes: weak parent motif; reference: not given; reading: higher = stronger binding
Starting sequence: viral docking peptide; KGVKRKLFAEDSS; partner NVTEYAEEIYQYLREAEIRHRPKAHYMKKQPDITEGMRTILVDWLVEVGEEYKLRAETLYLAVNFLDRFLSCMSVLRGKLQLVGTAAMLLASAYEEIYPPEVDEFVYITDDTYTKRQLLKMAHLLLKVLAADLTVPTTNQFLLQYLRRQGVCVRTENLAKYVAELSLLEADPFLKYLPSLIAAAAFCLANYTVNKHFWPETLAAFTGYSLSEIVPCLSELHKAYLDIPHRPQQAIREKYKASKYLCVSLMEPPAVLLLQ
Variant | normalised enrichment score
KGVKIKLFAEDSS [R5I] | 0.118
KGVKRKLFAELSS [D11L] | 0.356
KGVKRKLFAECSS [D11C] | 0.847
KGVKRWLFAEDSS [K6W] | -0.265
KGVKRKLFAEDKS [S12K] | 1.08
KDVKRKLFAEDSS [G2D] | 1.27
KGVKRKLIAEDSS [F8I] | 0.377
KGVKRKLEAEDSS [F8E] | 0.402

Series 3 — technique: competition with immobilised ligand; concentration: 1 µM
Structure (SMILES): Cn1cncc1[C@@](O)(COc1ccc(C#N)cc1-c1ccc(OC(F)(F)F)cc1)c1ccc(C#N)cc1
target | read-out | remaining binding [%]
Serine/threonine-protein kinase Nek3 (NEK3, Homo sapiens, UniProt P51956) | cell-free assay | 87
Serine/threonine-protein kinase haspin (HASPIN, Homo sapiens, UniProt Q8TF76) | cell-free assay | 100
Epidermal growth factor receptor (EGFR, Homo sapiens, UniProt P00533, A750P/del747-749) | cell-free assay | 100
Testis-specific serine/threonine-protein kinase 3 (TSSK3, Homo sapiens, UniProt Q96PN8) | cell-free assay | 100
Ribosomal protein S6 kinase alpha-4, N-terminal kinase domain (RPS6KA4, Homo sapiens, UniProt O75676) | cell-free assay | 93
Activin receptor type-2B (ACVR2B, Homo sapiens, UniProt Q13705) | binding | 100
Activin receptor type-1 (ACVR1, Homo sapiens, UniProt Q04771) | cell-free assay | 100
Proto-oncogene tyrosine-protein kinase ROS (ROS1, Homo sapiens, UniProt P08922) | cell-free assay | 96
Receptor-type tyrosine-protein kinase FLT3 (FLT3, Homo sapiens, UniProt P36888, K663Q) | cell-free assay | 64
Serine/threonine-protein kinase WNK2 (WNK2, Homo sapiens, UniProt Q9Y3S1) | cell-free assay | 84
Proto-oncogene tyrosine-protein kinase receptor Ret (RET, Homo sapiens, UniProt P07949) | cell-free assay | 100

Further values, each from its own experiment
Structure (SMILES) | target | read-out | action | concentration | reference | measurement | result
O=C1NC(=O)c2c1c1c3ccccc3n3c1c1c2c2ccccc2n1[C@H]1CC[C@@H]3O1 | Ephrin type-B receptor 2 (EPHB2, Homo sapiens, UniProt P29323) | enzyme activity | inhibitor | 0.5 µM | control | remaining activity | 98.4%

Excerpt of the above (series 2):
Variant | normalised enrichment score
KDVKRKLFAEDSS [G2D] | 1.27
KGVKRKLFAELSS [D11L] | 0.356
KGVKIKLFAEDSS [R5I] | 0.118
KGVKRWLFAEDSS [K6W] | -0.265
